{"data": "Published values gathered from unrelated publications", "MAP2K1": "Dual specificity mitogen-activated protein kinase kinase 1 (MAP2K1, Homo sapiens, UniProt Q02750)", "note": "Compare with care: the assays were run in different laboratories.", "UniProt Q02750, sequence (whole entry, looked up)": "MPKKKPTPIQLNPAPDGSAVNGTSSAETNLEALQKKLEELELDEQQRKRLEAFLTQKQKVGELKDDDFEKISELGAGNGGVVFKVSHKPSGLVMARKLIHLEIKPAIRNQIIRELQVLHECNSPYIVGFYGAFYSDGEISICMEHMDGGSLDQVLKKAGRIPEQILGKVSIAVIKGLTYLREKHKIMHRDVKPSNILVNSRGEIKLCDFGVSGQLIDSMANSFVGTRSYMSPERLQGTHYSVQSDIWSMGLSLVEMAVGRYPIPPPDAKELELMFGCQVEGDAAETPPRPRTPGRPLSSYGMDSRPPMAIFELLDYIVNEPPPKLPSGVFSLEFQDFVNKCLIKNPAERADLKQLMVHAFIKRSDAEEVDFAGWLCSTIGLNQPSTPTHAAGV", "UniProt Q8NEV4, sequence (whole entry, looked up)": "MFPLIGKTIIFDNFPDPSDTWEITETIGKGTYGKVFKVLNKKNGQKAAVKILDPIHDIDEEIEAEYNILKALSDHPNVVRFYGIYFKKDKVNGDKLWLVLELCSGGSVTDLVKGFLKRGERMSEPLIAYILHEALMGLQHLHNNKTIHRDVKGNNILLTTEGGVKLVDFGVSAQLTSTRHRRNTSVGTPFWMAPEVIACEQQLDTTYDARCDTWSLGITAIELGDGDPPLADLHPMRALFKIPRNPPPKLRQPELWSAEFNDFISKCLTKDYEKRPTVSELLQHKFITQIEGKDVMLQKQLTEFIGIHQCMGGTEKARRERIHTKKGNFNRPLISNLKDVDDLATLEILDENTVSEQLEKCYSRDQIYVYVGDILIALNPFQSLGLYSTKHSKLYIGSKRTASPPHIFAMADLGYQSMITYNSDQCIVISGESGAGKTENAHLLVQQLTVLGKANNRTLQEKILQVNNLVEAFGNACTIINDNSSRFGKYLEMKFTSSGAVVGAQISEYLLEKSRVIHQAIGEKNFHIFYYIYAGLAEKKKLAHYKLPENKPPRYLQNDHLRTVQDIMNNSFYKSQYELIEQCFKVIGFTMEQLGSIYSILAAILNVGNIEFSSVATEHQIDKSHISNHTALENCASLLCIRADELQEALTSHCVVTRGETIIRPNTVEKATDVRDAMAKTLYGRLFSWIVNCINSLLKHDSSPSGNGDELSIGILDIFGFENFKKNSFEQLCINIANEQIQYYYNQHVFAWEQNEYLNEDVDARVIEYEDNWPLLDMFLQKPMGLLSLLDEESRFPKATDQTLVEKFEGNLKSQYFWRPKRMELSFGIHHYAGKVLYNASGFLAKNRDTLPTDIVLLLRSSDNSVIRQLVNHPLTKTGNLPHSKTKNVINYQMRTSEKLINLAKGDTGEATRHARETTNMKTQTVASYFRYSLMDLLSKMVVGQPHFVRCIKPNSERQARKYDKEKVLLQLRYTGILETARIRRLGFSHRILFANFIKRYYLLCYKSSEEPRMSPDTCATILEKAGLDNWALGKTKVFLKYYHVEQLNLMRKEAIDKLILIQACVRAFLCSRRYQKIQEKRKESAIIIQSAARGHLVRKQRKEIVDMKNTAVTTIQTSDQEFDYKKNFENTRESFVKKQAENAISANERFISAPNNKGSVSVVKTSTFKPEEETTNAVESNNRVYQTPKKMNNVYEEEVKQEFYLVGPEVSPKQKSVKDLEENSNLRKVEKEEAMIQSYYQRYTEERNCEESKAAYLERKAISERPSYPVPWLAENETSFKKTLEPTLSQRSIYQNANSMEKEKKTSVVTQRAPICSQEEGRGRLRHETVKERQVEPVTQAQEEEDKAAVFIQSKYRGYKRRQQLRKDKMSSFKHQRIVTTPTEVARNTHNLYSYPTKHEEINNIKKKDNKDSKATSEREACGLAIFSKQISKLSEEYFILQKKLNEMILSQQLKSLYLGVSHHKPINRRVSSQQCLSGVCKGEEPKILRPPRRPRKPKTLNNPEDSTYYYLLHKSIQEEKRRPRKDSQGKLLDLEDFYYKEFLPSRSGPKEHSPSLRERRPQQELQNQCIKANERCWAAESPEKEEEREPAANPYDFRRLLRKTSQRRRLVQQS", "UniProt Q10QA5, sequence (whole entry, unmodified, looked up)": "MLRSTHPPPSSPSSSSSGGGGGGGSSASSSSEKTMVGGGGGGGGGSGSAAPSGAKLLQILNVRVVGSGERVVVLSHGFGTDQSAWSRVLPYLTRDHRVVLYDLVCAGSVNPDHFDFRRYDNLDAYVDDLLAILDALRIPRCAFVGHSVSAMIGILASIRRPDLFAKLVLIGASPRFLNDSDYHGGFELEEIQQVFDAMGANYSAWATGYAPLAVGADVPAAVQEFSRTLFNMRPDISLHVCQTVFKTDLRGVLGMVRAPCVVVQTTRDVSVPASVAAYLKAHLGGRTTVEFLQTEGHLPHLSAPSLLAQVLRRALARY", "UniProt Q00535, sequence (whole entry, looked up)": "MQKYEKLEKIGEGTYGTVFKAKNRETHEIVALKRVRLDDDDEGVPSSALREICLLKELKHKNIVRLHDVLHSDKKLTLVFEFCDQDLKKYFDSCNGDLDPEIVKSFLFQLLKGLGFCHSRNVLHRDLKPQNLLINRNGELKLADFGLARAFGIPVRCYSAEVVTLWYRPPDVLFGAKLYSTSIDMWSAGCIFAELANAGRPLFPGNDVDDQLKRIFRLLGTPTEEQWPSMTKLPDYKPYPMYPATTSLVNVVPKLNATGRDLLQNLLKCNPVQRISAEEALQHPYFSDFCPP", "UniProt P29376, sequence (whole entry, looked up)": "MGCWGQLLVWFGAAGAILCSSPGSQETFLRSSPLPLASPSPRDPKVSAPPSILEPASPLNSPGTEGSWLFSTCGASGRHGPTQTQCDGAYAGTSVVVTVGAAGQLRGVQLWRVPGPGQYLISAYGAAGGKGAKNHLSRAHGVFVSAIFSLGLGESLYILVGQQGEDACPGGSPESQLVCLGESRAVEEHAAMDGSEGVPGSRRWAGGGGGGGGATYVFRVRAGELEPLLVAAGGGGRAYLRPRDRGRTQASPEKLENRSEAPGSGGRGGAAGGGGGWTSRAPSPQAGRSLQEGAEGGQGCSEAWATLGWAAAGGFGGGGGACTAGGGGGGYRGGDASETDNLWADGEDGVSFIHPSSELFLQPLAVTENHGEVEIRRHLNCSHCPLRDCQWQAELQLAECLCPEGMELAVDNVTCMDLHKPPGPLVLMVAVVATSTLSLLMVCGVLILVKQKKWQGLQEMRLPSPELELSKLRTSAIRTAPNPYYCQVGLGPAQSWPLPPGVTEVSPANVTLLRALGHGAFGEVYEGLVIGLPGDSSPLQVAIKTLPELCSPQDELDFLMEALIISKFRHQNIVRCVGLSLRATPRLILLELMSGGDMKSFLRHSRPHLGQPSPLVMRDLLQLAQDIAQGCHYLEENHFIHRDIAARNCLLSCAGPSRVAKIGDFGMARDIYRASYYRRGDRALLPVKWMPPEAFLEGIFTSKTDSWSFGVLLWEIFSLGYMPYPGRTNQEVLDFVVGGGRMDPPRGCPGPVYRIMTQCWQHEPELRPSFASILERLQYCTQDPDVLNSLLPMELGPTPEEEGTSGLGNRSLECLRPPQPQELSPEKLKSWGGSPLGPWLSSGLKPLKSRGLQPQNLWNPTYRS", "UniProt P42336, sequence (whole entry, unmodified, looked up)": "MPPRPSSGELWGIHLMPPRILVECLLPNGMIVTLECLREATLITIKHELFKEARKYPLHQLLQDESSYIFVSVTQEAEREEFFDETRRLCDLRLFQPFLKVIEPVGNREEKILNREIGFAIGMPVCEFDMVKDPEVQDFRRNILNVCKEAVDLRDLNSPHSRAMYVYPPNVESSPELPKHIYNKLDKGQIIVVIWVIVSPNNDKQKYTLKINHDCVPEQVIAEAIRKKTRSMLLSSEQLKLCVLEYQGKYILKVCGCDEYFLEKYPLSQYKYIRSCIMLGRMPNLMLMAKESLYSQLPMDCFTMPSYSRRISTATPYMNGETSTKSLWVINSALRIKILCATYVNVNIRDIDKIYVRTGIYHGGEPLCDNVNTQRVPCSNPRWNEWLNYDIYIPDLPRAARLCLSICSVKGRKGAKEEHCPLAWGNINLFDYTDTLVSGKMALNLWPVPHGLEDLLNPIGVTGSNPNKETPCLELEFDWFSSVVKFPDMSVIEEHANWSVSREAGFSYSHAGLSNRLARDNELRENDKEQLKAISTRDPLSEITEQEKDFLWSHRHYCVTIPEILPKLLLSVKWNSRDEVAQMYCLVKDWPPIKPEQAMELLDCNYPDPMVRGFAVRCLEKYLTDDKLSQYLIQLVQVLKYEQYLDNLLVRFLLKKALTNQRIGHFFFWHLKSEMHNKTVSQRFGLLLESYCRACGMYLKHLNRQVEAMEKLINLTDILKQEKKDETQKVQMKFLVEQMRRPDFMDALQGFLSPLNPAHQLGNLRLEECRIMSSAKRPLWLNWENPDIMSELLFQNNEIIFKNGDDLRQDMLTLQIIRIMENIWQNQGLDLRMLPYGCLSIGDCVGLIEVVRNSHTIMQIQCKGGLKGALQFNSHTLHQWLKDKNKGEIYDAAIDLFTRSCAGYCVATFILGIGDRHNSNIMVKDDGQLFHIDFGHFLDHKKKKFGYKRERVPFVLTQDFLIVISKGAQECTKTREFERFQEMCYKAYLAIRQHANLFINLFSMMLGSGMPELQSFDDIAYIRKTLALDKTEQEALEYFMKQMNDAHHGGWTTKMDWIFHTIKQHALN", "UniProt P49286, sequence (whole entry, looked up)": "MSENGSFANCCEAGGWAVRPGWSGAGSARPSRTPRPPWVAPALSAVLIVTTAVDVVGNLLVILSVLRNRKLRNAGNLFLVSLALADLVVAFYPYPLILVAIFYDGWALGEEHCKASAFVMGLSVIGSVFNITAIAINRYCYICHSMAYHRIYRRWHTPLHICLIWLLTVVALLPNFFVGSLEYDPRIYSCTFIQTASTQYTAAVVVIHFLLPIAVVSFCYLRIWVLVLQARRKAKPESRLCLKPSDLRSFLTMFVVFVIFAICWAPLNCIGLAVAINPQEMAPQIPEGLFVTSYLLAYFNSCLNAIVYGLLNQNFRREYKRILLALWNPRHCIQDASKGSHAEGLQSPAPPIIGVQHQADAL"}
{"SMILES": "CC(=O)/C=C/C=C(C)/C=C/C1=C(C)CC(O)CC1(C)C (stereo in doubt)", "target": "D14 (Oryza sativa, UniProt Q10QA5)", "test": "thermal stability, DSF", "setting": "250 µM", "quantity": "ΔTm", "value": "6.4 °C"}
{"SMILES": "CNc1ncc2c(/C=C/C(=O)N3CCC(OC)CC3)nn(Cc3cccc(C(F)(F)F)c3)c2n1", "target": "Leukocyte tyrosine kinase receptor (LTK, Homo sapiens, UniProt P29376)", "test": "enzyme activity, inhibitor, radiometric", "setting": "1 µM", "quantity": "remaining activity", "value": "97%"}
{"SMILES": "C=CC(=O)N1CCC(COCC(=O)N2CCN(c3nc(-c4cnc(N)nc4C(F)F)nc(N4CCOC[C@@H]4C)n3)CC2)CC1", "target": "Tyrosine-protein kinase Yes (YES1, Homo sapiens, UniProt P07947)", "test": "binding, competition with immobilised ligand", "setting": "1 µM", "quantity": "remaining binding", "value": "84%"}
{"SMILES": "Nc1ncnc2c1ncn2[C@@H]1O[C@H](COP(=O)(O)OP(=O)(O)OP(=O)(O)O)[C@@H](O)[C@H]1O", "target": "MAP2K1", "test": "thermal stability, DSF", "quantity": "ΔTm", "value": "2 °C"}
{"SMILES": "COc1ccc2cccc(CCNC(C)=O)c2c1", "target": "Melatonin receptor type 1B (MTNR1B, Homo sapiens, UniProt P49286)", "test": "GTPγS binding, agonist, radiometric", "setting": "cell membranes", "quantity": "Emax", "value": "94%"}
{"SMILES": "COc1cc(-c2cncc3c2CN(C)Cc2cc(N4CCNCC4)ccc2-3)cc(OC)c1OC", "target": "Phosphorylase b kinase gamma catalytic chain, skeletal muscle/heart isoform (PHKG1, Homo sapiens, UniProt Q16816)", "test": "enzyme activity, inhibitor", "setting": "1 µM", "quantity": "remaining activity", "value": "112%"}
{"SMILES": "CCCCC(=O)Nc1ccc(-c2ccc3ncn(CCC)c(=O)c3c2)cn1", "target": "Phosphatidylinositol 4,5-bisphosphate 3-kinase catalytic subunit alpha isoform (PIK3CA, Homo sapiens, UniProt P42336, H1047Y)", "test": "binding, competition with immobilised ligand", "setting": "0.5 µM", "quantity": "remaining binding", "value": "89%"}
{"SMILES": "C1=C/COCc2cc(ccc2OCCN2CCCC2)Nc2nccc(n2)-c2cccc(c2)COC/1", "target": "Myosin-IIIa (MYO3A, Homo sapiens, UniProt Q8NEV4)", "test": "binding", "setting": "0.1 µM", "quantity": "remaining binding", "value": "100%"}
{"SMILES": "Cc1cc([C@@H](C)Nc2ccccc2C(=O)O)c2nc(N3CCC(F)(F)CC3)c(C#N)c(=O)n2c1", "target": "MAP2K1", "test": "binding, competition with immobilised ligand", "setting": "10 µM", "quantity": "remaining binding", "value": "93%"}
{"SMILES": "CC[C@H](C)[C@H](NC(=O)[C@H](CCC(N)=O)NC(=O)[C@@H](NC(=O)[C@H](CCSC)NC(=O)[C@H](CCCCN)NC(=O)[C@H](CO)NC(=O)[C@@H](NC(=O)[C@H](CCSC)NC(=O)[C@H](CC(C)C)NC(=O)[C@H](CC(N)=O)NC(=O)[C@@H](NC(=O)[C@@H](NC(=O)[C@H](CO)NC(=O)[C@H](CC(C)C)NC(=O)[C@H](C)NC(=O)[C@H](CCCNC(=N)N)NC(=O)[C@H](CCC(=O)O)NC(=O)[C@H](Cc1ccc(O)cc1)NC(=O)[C@H](Cc1ccccc1)NC(=O)[C@H](C)NC(=O)[C@H](CC(N)=O)NC(=O)[C@@H](N)CCCCN)[C@@H](C)CC)[C@@H](C)CC)[C@@H](C)O)C(C)C)C(=O)N[C@@H](CC(N)=O)C(=O)N[C@H](C(=O)O)C(C)C", "target": "Cyclin-dependent kinase 5, with p35 (CDK5, Homo sapiens, UniProt Q00535)", "test": "enzyme activity, inhibitor, radiometric", "setting": "1 µM, 20 min", "quantity": "remaining activity", "value": "97%"}
{"note": "Repeated from above:"}
{"SMILES": "CC(=O)/C=C/C=C(C)/C=C/C1=C(C)CC(O)CC1(C)C (stereo in doubt)", "target": "D14 (Oryza sativa, UniProt Q10QA5)", "test": "thermal stability, DSF", "setting": "250 µM", "quantity": "ΔTm", "value": "6.4 °C"}
